Assay results of several laboratories.
Compare with care: the assays were run in different laboratories. ± gives the spread as reported.
Ephx2: Bifunctional epoxide hydrolase 2 (Ephx2, Mus musculus, UniProt P34914)
Chain of UniProt P34914 (whole entry, looked up): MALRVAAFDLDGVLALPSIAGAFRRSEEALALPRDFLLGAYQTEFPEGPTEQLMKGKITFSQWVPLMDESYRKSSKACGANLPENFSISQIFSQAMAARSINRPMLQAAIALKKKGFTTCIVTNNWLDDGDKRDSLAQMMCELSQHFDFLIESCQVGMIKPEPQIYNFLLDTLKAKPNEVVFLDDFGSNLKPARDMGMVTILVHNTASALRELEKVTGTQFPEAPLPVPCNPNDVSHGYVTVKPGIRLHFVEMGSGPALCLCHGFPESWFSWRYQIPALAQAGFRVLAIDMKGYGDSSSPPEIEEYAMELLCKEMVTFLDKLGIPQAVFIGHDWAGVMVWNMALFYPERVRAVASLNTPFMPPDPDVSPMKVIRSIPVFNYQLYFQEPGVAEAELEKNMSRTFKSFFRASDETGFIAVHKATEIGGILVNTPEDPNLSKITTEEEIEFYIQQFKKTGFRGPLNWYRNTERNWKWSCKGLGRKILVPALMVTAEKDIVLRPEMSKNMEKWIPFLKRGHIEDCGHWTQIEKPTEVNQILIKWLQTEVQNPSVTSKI
STS: Steryl-sulfatase (STS, Homo sapiens, UniProt P08842)
Chain of UniProt P08842 (whole entry, looked up): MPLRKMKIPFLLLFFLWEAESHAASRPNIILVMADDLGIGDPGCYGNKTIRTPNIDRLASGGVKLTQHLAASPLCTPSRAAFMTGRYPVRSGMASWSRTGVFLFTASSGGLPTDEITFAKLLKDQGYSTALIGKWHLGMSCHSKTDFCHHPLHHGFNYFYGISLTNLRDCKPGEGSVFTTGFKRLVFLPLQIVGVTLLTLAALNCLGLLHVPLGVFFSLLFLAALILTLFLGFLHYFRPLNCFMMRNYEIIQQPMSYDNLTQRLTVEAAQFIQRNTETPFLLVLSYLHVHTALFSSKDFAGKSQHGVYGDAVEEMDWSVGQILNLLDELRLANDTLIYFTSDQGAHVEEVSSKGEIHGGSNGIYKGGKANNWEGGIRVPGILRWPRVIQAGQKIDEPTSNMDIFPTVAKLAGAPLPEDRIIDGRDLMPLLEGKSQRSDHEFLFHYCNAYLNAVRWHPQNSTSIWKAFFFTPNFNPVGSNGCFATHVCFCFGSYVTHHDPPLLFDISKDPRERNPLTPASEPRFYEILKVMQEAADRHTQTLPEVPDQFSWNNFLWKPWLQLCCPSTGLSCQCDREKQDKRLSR
Chain of UniProt Q9Y6K9 (whole entry, looked up): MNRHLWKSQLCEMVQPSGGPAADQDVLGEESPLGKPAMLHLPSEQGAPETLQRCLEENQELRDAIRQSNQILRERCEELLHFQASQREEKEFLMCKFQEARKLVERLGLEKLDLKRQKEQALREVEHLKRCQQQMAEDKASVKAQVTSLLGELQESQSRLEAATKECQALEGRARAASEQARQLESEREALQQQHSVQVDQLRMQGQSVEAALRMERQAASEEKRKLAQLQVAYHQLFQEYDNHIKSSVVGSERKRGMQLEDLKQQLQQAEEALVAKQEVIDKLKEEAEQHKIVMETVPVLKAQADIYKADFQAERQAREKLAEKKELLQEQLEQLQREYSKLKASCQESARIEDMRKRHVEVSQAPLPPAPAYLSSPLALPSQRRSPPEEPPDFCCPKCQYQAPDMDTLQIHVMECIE
Chain of UniProt P08100 (whole entry, looked up): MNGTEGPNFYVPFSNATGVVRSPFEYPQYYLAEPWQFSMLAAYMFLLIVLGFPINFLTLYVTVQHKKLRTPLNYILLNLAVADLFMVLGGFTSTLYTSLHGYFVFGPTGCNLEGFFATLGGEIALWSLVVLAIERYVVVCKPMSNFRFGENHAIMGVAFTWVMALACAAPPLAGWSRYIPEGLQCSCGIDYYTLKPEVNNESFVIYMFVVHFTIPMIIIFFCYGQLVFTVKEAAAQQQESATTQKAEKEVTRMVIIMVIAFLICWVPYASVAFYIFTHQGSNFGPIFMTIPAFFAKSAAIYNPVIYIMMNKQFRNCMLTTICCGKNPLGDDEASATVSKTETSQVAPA
Chain of UniProt P42574 (whole entry, looked up): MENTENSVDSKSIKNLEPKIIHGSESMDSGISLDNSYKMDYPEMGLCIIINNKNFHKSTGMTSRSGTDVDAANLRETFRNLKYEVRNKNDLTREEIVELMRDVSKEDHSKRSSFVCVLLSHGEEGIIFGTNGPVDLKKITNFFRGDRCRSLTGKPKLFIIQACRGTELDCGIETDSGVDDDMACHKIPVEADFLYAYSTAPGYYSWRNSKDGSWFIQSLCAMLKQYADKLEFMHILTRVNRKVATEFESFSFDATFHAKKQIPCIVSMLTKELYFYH
Chain of UniProt Q8IUQ4 (81-282, looked up): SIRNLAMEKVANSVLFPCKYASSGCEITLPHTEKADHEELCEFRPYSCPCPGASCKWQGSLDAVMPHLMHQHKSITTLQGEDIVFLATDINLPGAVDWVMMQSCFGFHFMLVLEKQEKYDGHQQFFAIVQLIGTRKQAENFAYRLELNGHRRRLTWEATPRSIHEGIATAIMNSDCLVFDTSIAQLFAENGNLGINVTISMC
Chain of UniProt Q92731 (whole entry, looked up): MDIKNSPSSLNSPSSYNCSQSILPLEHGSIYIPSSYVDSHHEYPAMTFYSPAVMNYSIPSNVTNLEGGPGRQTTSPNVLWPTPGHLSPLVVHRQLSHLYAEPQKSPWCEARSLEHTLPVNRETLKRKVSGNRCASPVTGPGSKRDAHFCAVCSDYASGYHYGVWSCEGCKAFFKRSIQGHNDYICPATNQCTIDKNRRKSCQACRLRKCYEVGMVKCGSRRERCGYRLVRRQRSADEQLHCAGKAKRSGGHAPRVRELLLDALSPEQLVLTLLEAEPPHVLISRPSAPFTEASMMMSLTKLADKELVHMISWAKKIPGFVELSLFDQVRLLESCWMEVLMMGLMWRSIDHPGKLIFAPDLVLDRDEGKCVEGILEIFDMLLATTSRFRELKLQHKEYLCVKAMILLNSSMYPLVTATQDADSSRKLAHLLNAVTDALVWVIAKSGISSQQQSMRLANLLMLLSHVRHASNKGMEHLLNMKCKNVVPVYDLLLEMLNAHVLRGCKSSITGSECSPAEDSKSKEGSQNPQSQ
Chain of UniProt P07339 (whole entry, looked up): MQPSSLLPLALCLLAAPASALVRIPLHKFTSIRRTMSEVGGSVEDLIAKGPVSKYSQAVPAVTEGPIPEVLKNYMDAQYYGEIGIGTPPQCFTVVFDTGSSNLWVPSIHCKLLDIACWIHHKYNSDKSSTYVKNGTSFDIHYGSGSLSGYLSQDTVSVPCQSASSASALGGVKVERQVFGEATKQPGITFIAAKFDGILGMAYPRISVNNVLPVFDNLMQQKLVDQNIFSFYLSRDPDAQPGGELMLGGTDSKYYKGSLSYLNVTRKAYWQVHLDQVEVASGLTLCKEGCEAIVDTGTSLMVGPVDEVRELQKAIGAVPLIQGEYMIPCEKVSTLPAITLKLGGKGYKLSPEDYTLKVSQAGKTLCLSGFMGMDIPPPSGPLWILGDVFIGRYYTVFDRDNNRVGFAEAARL
Chain of UniProt P30542 (whole entry, looked up): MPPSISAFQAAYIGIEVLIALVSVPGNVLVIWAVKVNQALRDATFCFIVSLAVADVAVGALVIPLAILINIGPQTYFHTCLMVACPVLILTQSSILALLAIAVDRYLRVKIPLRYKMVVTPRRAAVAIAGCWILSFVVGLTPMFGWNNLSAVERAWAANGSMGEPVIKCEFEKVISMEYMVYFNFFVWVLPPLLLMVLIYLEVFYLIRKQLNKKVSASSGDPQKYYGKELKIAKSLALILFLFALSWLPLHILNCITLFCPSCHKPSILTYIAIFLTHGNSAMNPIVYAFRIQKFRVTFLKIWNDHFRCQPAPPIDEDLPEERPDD
Chain of UniProt P37353 (whole entry, looked up): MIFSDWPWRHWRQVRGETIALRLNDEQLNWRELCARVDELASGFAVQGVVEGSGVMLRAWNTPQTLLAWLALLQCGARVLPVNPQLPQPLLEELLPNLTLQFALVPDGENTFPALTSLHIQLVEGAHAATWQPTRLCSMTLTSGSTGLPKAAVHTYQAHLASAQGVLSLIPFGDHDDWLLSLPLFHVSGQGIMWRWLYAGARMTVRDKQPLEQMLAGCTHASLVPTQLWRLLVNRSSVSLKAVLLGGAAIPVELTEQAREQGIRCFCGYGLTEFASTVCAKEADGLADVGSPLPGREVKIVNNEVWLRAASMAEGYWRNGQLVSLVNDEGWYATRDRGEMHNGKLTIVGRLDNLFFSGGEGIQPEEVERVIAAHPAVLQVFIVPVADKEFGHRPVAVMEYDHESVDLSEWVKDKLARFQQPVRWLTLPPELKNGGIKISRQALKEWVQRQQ
Chain of UniProt P21462 (whole entry, looked up): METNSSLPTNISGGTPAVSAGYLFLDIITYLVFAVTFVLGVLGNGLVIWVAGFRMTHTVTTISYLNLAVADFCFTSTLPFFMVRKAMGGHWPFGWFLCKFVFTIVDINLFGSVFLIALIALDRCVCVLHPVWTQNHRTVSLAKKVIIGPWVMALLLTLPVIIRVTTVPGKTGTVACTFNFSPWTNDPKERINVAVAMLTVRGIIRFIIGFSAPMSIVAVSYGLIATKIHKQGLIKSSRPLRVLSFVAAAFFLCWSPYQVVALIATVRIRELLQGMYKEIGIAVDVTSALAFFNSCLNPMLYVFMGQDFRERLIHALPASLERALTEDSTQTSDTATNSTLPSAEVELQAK
Chain of UniProt P22071 (whole entry, looked up): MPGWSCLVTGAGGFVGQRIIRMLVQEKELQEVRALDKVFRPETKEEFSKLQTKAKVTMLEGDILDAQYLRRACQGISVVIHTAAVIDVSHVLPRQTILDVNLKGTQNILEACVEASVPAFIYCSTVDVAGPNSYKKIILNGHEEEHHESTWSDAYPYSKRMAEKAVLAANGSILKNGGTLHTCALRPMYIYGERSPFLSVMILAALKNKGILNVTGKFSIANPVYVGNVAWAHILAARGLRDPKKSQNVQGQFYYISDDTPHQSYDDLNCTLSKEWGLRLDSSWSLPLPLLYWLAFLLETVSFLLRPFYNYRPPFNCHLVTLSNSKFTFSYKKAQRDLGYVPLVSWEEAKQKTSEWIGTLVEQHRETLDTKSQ

`Oc1cc(O)c2c(c1)O[C@H](c1ccc(O)c(O)c1)[C@@H](O)[C@@H]2c1c(O)cc(O)c2c1O[C@H](c1ccc(O)c(O)c1)[C@@H](O)C2` gave an IC50 of 2400 ± 300 nM (alpha-glucosidase (Bacillus stearothermophilus); inhibitor; 20 min, pH 6.8, 60 °C, added: pNPG substrate).
`CN(Cc1cccc(-c2ccc(F)cc2)c1)Cc1cc(C2CC2)on1` gave an IC50 of > 50000 nM (Acetyl-CoA synthetase (Cryptococcus neoformans, UniProt J9VFT1)).
`CC(C)C(=O)NC1CC=C(c2cc3c(Nc4ccc5scnc5c4)ncnc3s2)CC1` (stereo not drawn) gave an IC50 of 12 nM (RIPK2 (Homo sapiens, UniProt O43353); enzyme activity, inhibitor).
With `CC(Cl)C(=O)Nc1ccc2nc(NCCCCCN(C)C)nc(NCCCCCCN(C)C)c2c1` (stereo not drawn) the IC50 was 9500 ± 5400 nM (Histone-lysine N-methyltransferase SETDB1, triple tudor domain (SETDB1, Homo sapiens, UniProt Q15047, C385A); binding, TR-FRET displacement; 1 h, room temperature).
For `CC12CC3CC(C1)CC(NC(=O)NC14CC5CC(CC(C)(C5)C1)C4)(C3)C2`, the IC50 was 5.5 nM (Ephx2; enzyme activity, inhibitor, fluorescence).
`COc1cc(COC(=O)C2C(C=O)=Cc3cc4c(cc3C2c2cc(OC)c(OC)c(OC)c2)OCO4)cc(OC)c1OC` (stereo not drawn) gave an IC50 of 3100 ± 200 nM (tubulin alpha/beta (Leishmania infantum, UniProt A0A381MCS3+A4HTR0); tubulin polymerization, inhibitor; 37 °C).
`Cn1nc(-c2cccc(O)c2)c2c(N)ncnc21` gave an IC50 of 11.1 nM (PTK6 (Homo sapiens, UniProt Q13882); enzyme activity, inhibitor, ADP detection).
With `O=C(NC1CCCCCC1)NC1CCCCC1` the IC50 was 50 nM (Ephx2; enzyme activity, inhibitor, absorbance; pH 7.4, with preincubation).
For `Fc1ccccc1-n1c(-c2ccccc2)cs/c1=N/N=C/c1ccc(N2CCOCC2)cc1`, the IC50 was 44300 nM (CA2 (Bos taurus, UniProt P00921); enzyme activity, inhibitor, absorbance).
With `CCNC(=O)[C@H]1O[C@@H](n2cnc3c(NCCCNC(=O)CCCCCNC(=O)COc4ccc(/C=C/C5=[N+]6C(=Cc7ccc(-c8cccs8)n7[B-]6(F)F)C=C5)cc4)ncnc32)[C@H](O)[C@@H]1O` the IC50 was 6.17 nM (ADORA1 (Homo sapiens, UniProt P30542); CRE reporter gene, agonist; CHO-A1; Gi-mediated inhibition, added: forskolin).
For `O=C(O)c1c(O)cccc1/C=C/c1ccc(O)cc1`, the IC50 was > 100000 nM (PTPN1 (Homo sapiens, UniProt P18031); enzyme activity, inhibitor, absorbance).
`COc1ccc2c(c1)c1c(n2CO)CN2CCc3cc(OCc4cccc(F)c4)c(OC)cc3C2C1` (stereo not drawn) has an IC50 of 15700 nM (HTR1B (Homo sapiens, UniProt P28222); ligand displacement in cells, radioligand).
For `CN(C(=O)c1ccn2ncc(-c3ccc(C(N)=O)cc3)c2c1)c1ccc(C#N)cn1`, the IC50 was > 30000 nM (Caspase-3 (CASP3, Homo sapiens, UniProt P42574); enzyme activity, inhibitor).
With `COc1cccc(Cc2cc(CCC(=O)NCCNc3cccc4c(S(=O)(=O)O)cccc34)nn(CC(=O)Nc3ccc(Br)cc3)c2=O)c1` the IC50 was 2 nM (FPR1 (Homo sapiens, UniProt P21462); calcium signal, antagonist).
`C[C@]12CC[C@@H]3c4ccc(O)c(Br)c4CC[C@H]3[C@@H]1CCC2=O` gave an IC50 of 7000 nM (AKR1C2 (Homo sapiens, UniProt P52895); enzyme activity, inhibitor, absorbance; pH 9).
`N#Cc1ccc(N(Cc2ccc(OS(N)(=O)=O)c(C(F)F)c2)n2cnnc2)cc1` has an IC50 of 10 to 100 nM (STS; enzyme activity, inhibitor; JEG-3 intact monolayers).
`CC[C@H](C)[C@@H]1NC(=O)[C@H](Cc2c[nH]c3ccccc23)NC(=O)CNC(=O)c2cc3cc(c2)C(=O)NC[C@@H](C(=O)NCCC(=O)NCCC(=O)N[C@@H](CCCCN)C(N)=O)NC(=O)[C@H](CCCNC(=N)N)NC(=O)[C@@H](CCCNC(=N)N)NC(=O)[C@H](CCCNC(=N)N)NC(=O)[C@H](C)NC(=O)[C@H](Cc2ccccc2)NC(=O)[C@H](CNC3=O)NC(=O)[C@H](C)NC(=O)[C@H](Cc2ccc(O)cc2)NC1=O` gave an IC50 of 2800 ± 200 nM (NF-kappa-B essential modulator, with IKK-beta (IKBKG, Homo sapiens, UniProt Q9Y6K9); inhibitor, HTRF).
`COC(=O)C1CCCN1C(=O)C(Cc1ccccc1)N(C)C(=O)CC(O)C(CC(C)C)NC(=O)C(CC(C)C)N(C)C(=O)C(CC(C)C)NC(=O)C(O)C(C)C` (stereo not drawn) has an IC50 of 66 nM (Cathepsin D (CTSD, Homo sapiens, UniProt P07339); enzyme activity, inhibitor, fluorescence; pH 3.5).
`CCOC(=O)C(CC)NC(=O)CN1C(=O)S/C(=C\c2ccc([N+](=O)[O-])cc2)C1=O` (stereo not drawn) gave an IC50 of > 100000 nM (α-amylase; enzyme activity, DNSA colorimetric).
The IC50 of `N/C(=N\O)c1ccc2c(c1)N(Cc1ccc(C(=O)NO)cc1)c1ccccc1O2` is reported as 1840 nM (HDAC7 (Homo sapiens, UniProt Q8WUI4); enzyme activity, inhibitor).
`CCn1cc[n+](CC)[c]1[Au-][Cl]` has an IC50 of 243 nM (trxB (Escherichia coli, UniProt P0A9P4); enzyme activity, inhibitor, absorbance; with preincubation).
`COc1ccc(C=CC(=O)c2cccc(O)c2)cc1` gave an IC50 of 620 nM (ESR2 (Homo sapiens, UniProt Q92731); coactivator recruitment, antagonist).
`C=CC(=O)NCCC[C@H](NC(=O)[C@@H]1CCCN1C(=O)[C@H](CCCNC(=N)N)NC(=O)[C@@H](NC(=O)[C@H](CCSC)NC(=O)[C@H](C)NC(=O)[C@@H](NC(=O)[C@@H]1CCCN1C(=O)[C@H](CCCNC(=N)N)NC(=O)[C@H](CC(C)C)NC(=O)[C@H](CCCCN)NC(C)=O)C(C)C)C(C)C)C(=O)N[C@H](C(=O)N[C@@H](CCCNC(=N)N)C(N)=O)C(C)C` gave an IC50 of 50 nM (E3 ubiquitin-protein ligase SIAH1, part residues 81-282 (SIAH1, Homo sapiens, UniProt Q8IUQ4); binding, inhibitor, DELFIA; 1 h, 0 °C, Siah1 residues 81-282, added: biotin-PHYL peptide displacement).
The IC50 of `CC1=C(/C=C/C(=O)N2CCN(C(N)=O)CC2)C(C)(C)CCC1` is reported as 17800 to 28600 nM (Rhodopsin (RHO, Homo sapiens, UniProt P08100); 9-cis-retinal binding rate, competitor; cell-free, incomplete competition, added: 9-cis-retinal 2.0 µM).
For `COc1cc(O)ccc1CC[C@@H](c1ccc(O)cc1)c1cc2c(c(C)c1O)O[C@H](c1ccc(O)cc1)CC2`, the IC50 was 500 nM (ALOX5 (Homo sapiens, UniProt P09917); enzyme activity, inhibitor).
For `NS(=O)(=O)Oc1ccc2c3c(c(=O)oc2c1)CCCC3`, the IC50 was 7 nM (STS; enzyme activity in cells, inhibitor).
With `COc1cccc(C2NC(=O)NC(C)=C2C(C)=O)c1` (stereo not drawn) the IC50 was 132000 nM (AMY2 (Sus scrofa, UniProt P00690); enzyme activity, inhibitor).
For `CN(Cc1cnn(-c2ccccc2)c1)C(=O)CN1CC(C(=O)N2CCCCC2)Oc2ccccc21` (stereo not drawn), the IC50 was 6300 ± 100 nM (gyrB (Escherichia coli, UniProt P0AES6); enzyme activity, inhibitor).
With `Nc1ncnc2c1ncn2[C@@H]1O[C@H](CNS(=O)(=O)NCCCC(=O)c2ccccc2C(=O)O)[C@@H](O)[C@H]1O` the IC50 was 35000 ± 3200 nM (2-succinylbenzoate--CoA ligase (menE, Escherichia coli, UniProt P37353); enzyme activity, inhibitor, MenB-MenE coupled).
With `CNC(=O)C1CCN(c2cc(C)c(F)cc2NC(=O)c2ccc(-c3cc(O)ccc3C)c(C)c2)CC1` the IC50 was 6510 nM (FGR (Homo sapiens, UniProt P09769); target engagement in cells, BRET).
For `Cc1cc(NC(=O)c2cccc(-n3cc(NC(=O)Nc4ccc(F)cc4)cn3)c2)ccn1`, the IC50 was 103 nM (MAPK10 (Homo sapiens, UniProt P53779); enzyme activity, inhibitor, TR-FRET).
`COc1cc(/C=C/C(=O)CC(=O)CCc2ccc(O)c(OC)c2)ccc1O` has an IC50 of ≥ 100000 nM (Hsd3b1 (Rattus norvegicus, UniProt P22071); enzyme activity, inhibitor; rat testicular microsomes; lower bound from 100 µM screen, added: pregnenolone).
`Nc1ccc(-c2cc(Cl)c(Cl)c3[nH]c4c(c23)CN(C(=O)CO)CC4)cn1` gave an IC50 of 33500 nM (Cgas (Mus musculus, UniProt Q8C6L5); enzyme activity, inhibitor, mass spectrometry).

Repeated from above:
The IC50 of `N/C(=N\O)c1ccc2c(c1)N(Cc1ccc(C(=O)NO)cc1)c1ccccc1O2` is reported as 1840 nM (HDAC7 (Homo sapiens, UniProt Q8WUI4); enzyme activity, inhibitor).
With `CC(Cl)C(=O)Nc1ccc2nc(NCCCCCN(C)C)nc(NCCCCCCN(C)C)c2c1` (stereo not drawn) the IC50 was 9500 ± 5400 nM (Histone-lysine N-methyltransferase SETDB1, triple tudor domain (SETDB1, Homo sapiens, UniProt Q15047, C385A); binding, TR-FRET displacement; 1 h, room temperature).
`Cn1nc(-c2cccc(O)c2)c2c(N)ncnc21` gave an IC50 of 11.1 nM (PTK6 (Homo sapiens, UniProt Q13882); enzyme activity, inhibitor, ADP detection).
